Assay results from different studies.
Compare with care: the assays were run in different laboratories. ± gives the spread as reported.
GLP1R: Glucagon-like peptide 1 receptor (GLP1R, Homo sapiens, UniProt P43220)
Chain of UniProt P34995 (whole entry, unmodified, looked up): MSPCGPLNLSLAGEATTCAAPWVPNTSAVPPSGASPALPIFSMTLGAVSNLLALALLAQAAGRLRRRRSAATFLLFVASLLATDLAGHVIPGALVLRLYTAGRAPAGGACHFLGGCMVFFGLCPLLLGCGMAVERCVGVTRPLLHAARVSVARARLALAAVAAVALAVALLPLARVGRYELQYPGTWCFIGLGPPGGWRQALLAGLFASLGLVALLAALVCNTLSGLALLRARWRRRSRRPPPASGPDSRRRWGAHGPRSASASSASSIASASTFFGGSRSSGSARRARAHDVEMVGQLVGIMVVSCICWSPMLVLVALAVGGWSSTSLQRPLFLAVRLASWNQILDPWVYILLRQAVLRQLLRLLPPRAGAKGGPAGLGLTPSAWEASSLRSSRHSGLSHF
Chain of UniProt P17787 (whole entry, looked up): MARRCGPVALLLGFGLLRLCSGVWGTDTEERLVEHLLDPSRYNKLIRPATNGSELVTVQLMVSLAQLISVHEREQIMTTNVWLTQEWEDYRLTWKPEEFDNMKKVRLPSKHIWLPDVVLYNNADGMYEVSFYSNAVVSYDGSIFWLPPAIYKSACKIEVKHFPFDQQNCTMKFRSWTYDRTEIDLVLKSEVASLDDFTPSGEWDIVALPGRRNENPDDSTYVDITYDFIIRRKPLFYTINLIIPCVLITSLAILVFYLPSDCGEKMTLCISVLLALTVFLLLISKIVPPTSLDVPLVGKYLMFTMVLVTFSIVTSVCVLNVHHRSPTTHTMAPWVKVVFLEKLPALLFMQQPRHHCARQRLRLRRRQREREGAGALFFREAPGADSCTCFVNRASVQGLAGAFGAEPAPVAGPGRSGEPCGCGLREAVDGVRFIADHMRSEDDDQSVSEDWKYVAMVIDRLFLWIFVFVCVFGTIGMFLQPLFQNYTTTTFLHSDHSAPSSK
Chain of UniProt Q8IXQ5 (whole entry, looked up): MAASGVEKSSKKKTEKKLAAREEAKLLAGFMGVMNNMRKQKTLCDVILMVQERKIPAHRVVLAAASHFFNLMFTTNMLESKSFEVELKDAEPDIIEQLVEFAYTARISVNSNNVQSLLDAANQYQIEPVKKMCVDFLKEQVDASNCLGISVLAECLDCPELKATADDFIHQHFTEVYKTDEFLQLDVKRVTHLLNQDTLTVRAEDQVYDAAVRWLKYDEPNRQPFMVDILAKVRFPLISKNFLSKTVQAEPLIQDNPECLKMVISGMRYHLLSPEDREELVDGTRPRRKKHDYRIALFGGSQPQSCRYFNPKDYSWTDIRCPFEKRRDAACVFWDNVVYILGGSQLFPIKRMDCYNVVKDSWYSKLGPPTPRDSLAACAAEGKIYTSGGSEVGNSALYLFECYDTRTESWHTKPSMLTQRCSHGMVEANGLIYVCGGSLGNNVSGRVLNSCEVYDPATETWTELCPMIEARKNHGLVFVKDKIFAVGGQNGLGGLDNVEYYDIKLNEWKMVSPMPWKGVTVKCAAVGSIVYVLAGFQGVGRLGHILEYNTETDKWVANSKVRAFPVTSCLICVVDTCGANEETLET
Chain of UniProt P51532 (537-1393, looked up): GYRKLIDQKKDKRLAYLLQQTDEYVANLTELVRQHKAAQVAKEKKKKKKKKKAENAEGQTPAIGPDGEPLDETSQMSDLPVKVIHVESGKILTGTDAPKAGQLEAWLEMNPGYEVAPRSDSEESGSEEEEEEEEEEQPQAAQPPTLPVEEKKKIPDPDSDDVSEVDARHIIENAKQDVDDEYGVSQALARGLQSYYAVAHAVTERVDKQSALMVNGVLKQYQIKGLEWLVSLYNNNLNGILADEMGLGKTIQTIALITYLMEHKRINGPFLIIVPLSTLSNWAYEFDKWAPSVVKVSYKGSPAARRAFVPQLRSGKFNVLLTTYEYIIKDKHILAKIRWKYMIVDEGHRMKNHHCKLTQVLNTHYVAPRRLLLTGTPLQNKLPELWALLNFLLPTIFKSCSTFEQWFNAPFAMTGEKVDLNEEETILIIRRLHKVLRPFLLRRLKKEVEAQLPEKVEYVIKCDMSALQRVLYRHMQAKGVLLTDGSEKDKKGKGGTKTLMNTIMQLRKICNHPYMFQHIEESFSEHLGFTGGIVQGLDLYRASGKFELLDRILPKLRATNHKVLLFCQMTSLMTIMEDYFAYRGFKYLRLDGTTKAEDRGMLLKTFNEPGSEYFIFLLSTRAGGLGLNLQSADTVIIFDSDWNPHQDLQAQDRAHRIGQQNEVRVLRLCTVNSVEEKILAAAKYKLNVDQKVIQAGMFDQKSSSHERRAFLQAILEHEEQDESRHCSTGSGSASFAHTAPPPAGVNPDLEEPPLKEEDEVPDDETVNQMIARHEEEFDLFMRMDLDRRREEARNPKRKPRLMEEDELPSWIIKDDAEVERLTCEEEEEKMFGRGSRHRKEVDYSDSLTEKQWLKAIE
Chain of UniProt P43681 (whole entry, looked up): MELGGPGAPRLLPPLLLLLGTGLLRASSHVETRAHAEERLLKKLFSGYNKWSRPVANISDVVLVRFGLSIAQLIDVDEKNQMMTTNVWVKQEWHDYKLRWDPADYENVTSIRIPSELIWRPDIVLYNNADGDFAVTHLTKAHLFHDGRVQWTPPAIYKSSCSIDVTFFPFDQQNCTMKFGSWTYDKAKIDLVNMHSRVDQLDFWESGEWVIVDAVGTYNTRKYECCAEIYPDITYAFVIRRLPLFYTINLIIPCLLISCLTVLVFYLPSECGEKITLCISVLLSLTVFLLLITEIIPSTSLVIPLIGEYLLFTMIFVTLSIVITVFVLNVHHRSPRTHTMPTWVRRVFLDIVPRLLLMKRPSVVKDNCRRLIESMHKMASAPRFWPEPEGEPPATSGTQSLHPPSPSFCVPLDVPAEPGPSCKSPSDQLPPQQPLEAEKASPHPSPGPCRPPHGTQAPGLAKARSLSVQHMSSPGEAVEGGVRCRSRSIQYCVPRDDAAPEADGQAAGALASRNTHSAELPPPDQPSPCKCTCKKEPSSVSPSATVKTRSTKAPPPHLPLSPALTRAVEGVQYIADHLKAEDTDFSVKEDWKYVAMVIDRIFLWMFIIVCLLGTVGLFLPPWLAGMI

Compound	target	test	test system	conditions	scale	measurement	value
Nc1nc2c(ncn2[C@@H]2O[C@@H]3COP(=O)(O)O[C@H]4[C@@H](O)[C@H](n5cnc6c(=O)[nH]c(N)nc65)O[C@@H]4COP(=O)(O)O[C@H]3[C@H]2O)c(=O)[nH]1	Cell cycle histidine kinase CckA, DHp-CA domains (Caulobacter vibrioides, UniProt Q9X688)	ITC	–	added: AMPPNP 5 mM	–	ΔH	1.03 ± 0.0433 kcal/mol
O=c1cc(-c2ccc([N+](=O)[O-])cc2)[nH]c2c(-c3ccc(Cl)cc3)c(Cc3ccccc3)nn12	Kelch-like protein 7 (KLHL7, Homo sapiens, UniProt Q8IXQ5)	thermal stability, binder, thermal proteome profiling	RD, cell lysate	50 µM, 0.5% DMSO	reference: DMSO vehicle	melting temperature shift	3.2 °C
C=C1CN(S(=O)(=O)c2ccc(C)cc2)CCCN(Cc2ccccc2)CCCN(S(=O)(=O)c2ccc(C)cc2)C1	CD4 signal peptide FLuc	–	HEK293 reporter-transfected	concentration not given, 3 h, unit not given, added: cycloheximide	reference: mock	FLuc activity	0.979
CCCCC[C@H](O)/C=C/[C@H]1[C@H](O)CC(=O)[C@@H]1C/C=C\CCCC(=O)O	PTGER1 (Homo sapiens, UniProt P34995, L125A)	IP1 accumulation, agonist	AD293	1 h, EP1 L125A mutant	–	Emax	69.8 ± 5.62%
O=C(Nc1c[nH]nc1-c1nc2ccc(CN3CCOCC3)cc2[nH]1)NC1CC1	NanoBiT HiBiT/LgBiT luciferase	inhibitor, HiBiT luminescence counterscreen	conditioned medium only	1.66 µM, 24 h	reference: vehicle	luminescence signal reduction	-0.68%
O=C1CCC(N2C(=O)c3cccc(NCCCCNC(=O)c4cccc(C#Cc5cc(NC(=O)Nc6ccnc(Cl)c6)ccn5)c4)c3C2=O)C(=O)N1 (stereo not shown)	SWI/SNF-related matrix-associated actin-dependent regulator of chromatin subfamily A member 4, residues 537-1393 (SMARCA4, Homo sapiens, UniProt P51532)	ITC	–	concentration not given	–	binding stoichiometry	2.42
CC[C@H](C)[C@H](NC(=O)[C@H](Cc1ccccc1)NC(=O)[C@H](CCC(=O)O)NC(=O)[C@H](CCCNC(=N)N)NC(=O)[C@H](C)NC(=O)[C@H](C)NC(=O)[C@H](CCC(N)=O)NC(=O)[C@H](CCC(=O)O)NC(=O)[C@H](CCC(=O)O)NC(=O)[C@H](CC(C)C)NC(=O)[C@H](Cc1ccc(O)cc1)NC(=O)[C@H](CO)NC(=O)[C@H](CO)NC(=O)[C@H](CCCCNc1c(NCCCCCN(O)C(=O)CCC(=O)NCCCCCN(O)C(=O)CCC(=O)NCCCCCN(O)C(C)=O)c(=O)c1=O)NC(=O)[C@H](CC(=O)O)NC(=O)[C@H](CO)NC(=O)[C@@H](NC(=O)[C@H](Cc1ccccc1)NC(=O)[C@@H](NC(=O)CNC(=O)[C@H](CCC(=O)O)NC(=O)[C@H](C)NC(=O)CCc1cnc[nH]1)[C@@H](C)O)[C@@H](C)O)C(=O)N[C@@H](C)C(=O)N[C@@H](Cc1c[nH]c2ccccc12)C(=O)N[C@@H](CC(C)C)C(=O)N[C@H](C(=O)N[C@@H](CCCCNc1c(NCCCCCN(O)C(=O)CCC(=O)NCCCCCN(O)C(=O)CCC(=O)NCCCCCN(O)C(C)=O)c(=O)c1=O)C(=O)NCC(=O)N[C@@H](CCCNC(=N)N)C(=O)N[C@@H](CCCCNC(=O)COCCOCCNC(=O)COCCOCCNC(=O)CC[C@H](NC(=O)CCCCCCCCCCCCCCCCC(=O)O)C(=O)O)C(=O)O)C(C)C	GLP1R	agonist, CRE luciferase reporter	BHK cells	Zr-loaded DFO conjugate, added: 1% HSA	reference: parent peptide	fold potency loss	32.1
CCOc1ccc(NC(=O)OC(Cn2nc(C(C)C)cc2C(C)C)C(C)C)cc1 (stereo not shown)	Neuronal acetylcholine receptor; alpha4/beta2, (α4)2(β2)3 stoichiometry (Homo sapiens, UniProt P17787+P43681)	ACh-evoked current, two-electrode voltage clamp	–	1 µM, high-sensitivity stoichiometry, added: ACh 1 µM	reference: ACh alone	current	561 ± 50%
CC[C@H](C)[C@@H]1NC(=O)[C@H]([C@@H](C)O)NC(=O)[C@@H]2CCCN2C(=O)[C@H](CC(C)C)NC(=O)[C@H](Cc2ccc(O)cc2)NC(=O)CSC[C@@H](C(N)=O)NC(=O)[C@H](CC(C)C)NC(=O)[C@@H]2CCCN2C(=O)[C@H](Cc2c[nH]cn2)NC(=O)[C@H](Cc2c[nH]c3ccccc23)NC(=O)[C@H](CC(C)C)NC(=O)[C@H](Cc2c[nH]cn2)NC(=O)CNC(=O)[C@H](C(C)C)NC(=O)CNC(=O)[C@H]([C@@H](C)O)NC1=O	Vacuolar protein sorting-associated protein 29 (VPS29, Homo sapiens, UniProt Q9UBQ0)	binding, ITC	–	25 °C, protein alone	–	ΔH	-9.1 ± 1.6 kcal/mol
CC[C@H](C)[C@H](NC(=O)[C@H](Cc1ccccc1)NC(=O)[C@H](CCC(=O)O)NC(=O)[C@H](CCCNC(=N)N)NC(=O)[C@H](C)NC(=O)[C@H](C)NC(=O)[C@H](CCC(N)=O)NC(=O)[C@H](CCC(=O)O)NC(=O)[C@H](CCC(=O)O)NC(=O)[C@H](CC(C)C)NC(=O)[C@H](Cc1ccc(O)cc1)NC(=O)[C@H](CO)NC(=O)[C@H](CO)NC(=O)[C@@H](NC(=O)[C@H](CC(=O)O)NC(=O)[C@H](CO)NC(=O)[C@@H](NC(=O)[C@H](Cc1ccccc1)NC(=O)[C@@H](NC(=O)CNC(=O)[C@H](CCC(=O)O)NC(=O)[C@H](C)NC(=O)CCc1cnc[nH]1)[C@@H](C)O)[C@@H](C)O)C(C)C)C(=O)N[C@@H](C)C(=O)N[C@@H](Cc1c[nH]c2ccccc12)C(=O)N[C@@H](CC(C)C)C(=O)N[C@H](C(=O)N[C@@H](CCCNC(=N)N)C(=O)NCC(=O)N[C@@H](CCCNC(=N)N)C(=O)N[C@@H](CCCCNC(=O)COCCOCCNC(=O)COCCOCCNC(=O)CC[C@H](NC(=O)CCCCCCCCCCCCCCCCC(=O)O)C(=O)O)C(=O)NCC(=O)NCC(=O)N[C@@H](CO)C(=O)N[C@@H](CCCCNc1c(NCCCCCN(O)C(=O)CCC(=O)NCCCCCN(O)C(=O)CCC(=O)NCCCCCN(O)C(C)=O)c(=O)c1=O)C(=O)NCC(=O)NCC(=O)N[C@@H](CO)C(=O)N[C@@H](CCCCNc1c(NCCCCCN(O)C(=O)CCC(=O)NCCCCCN(O)C(=O)CCC(=O)NCCCCCN(O)C(C)=O)c(=O)c1=O)C(=O)O)C(C)C	GLP1R	agonist, CRE luciferase reporter	BHK cells	metal-free DFO conjugate, added: 0% HSA	reference: parent peptide	fold potency loss	5.8

Some of these lines once more:
Compound	target	test	test system	conditions	scale	measurement	value
O=C1CCC(N2C(=O)c3cccc(NCCCCNC(=O)c4cccc(C#Cc5cc(NC(=O)Nc6ccnc(Cl)c6)ccn5)c4)c3C2=O)C(=O)N1 (stereo not shown)	SWI/SNF-related matrix-associated actin-dependent regulator of chromatin subfamily A member 4, residues 537-1393 (SMARCA4, Homo sapiens, UniProt P51532)	ITC	–	concentration not given	–	binding stoichiometry	2.42
CC[C@H](C)[C@H](NC(=O)[C@H](Cc1ccccc1)NC(=O)[C@H](CCC(=O)O)NC(=O)[C@H](CCCNC(=N)N)NC(=O)[C@H](C)NC(=O)[C@H](C)NC(=O)[C@H](CCC(N)=O)NC(=O)[C@H](CCC(=O)O)NC(=O)[C@H](CCC(=O)O)NC(=O)[C@H](CC(C)C)NC(=O)[C@H](Cc1ccc(O)cc1)NC(=O)[C@H](CO)NC(=O)[C@H](CO)NC(=O)[C@H](CCCCNc1c(NCCCCCN(O)C(=O)CCC(=O)NCCCCCN(O)C(=O)CCC(=O)NCCCCCN(O)C(C)=O)c(=O)c1=O)NC(=O)[C@H](CC(=O)O)NC(=O)[C@H](CO)NC(=O)[C@@H](NC(=O)[C@H](Cc1ccccc1)NC(=O)[C@@H](NC(=O)CNC(=O)[C@H](CCC(=O)O)NC(=O)[C@H](C)NC(=O)CCc1cnc[nH]1)[C@@H](C)O)[C@@H](C)O)C(=O)N[C@@H](C)C(=O)N[C@@H](Cc1c[nH]c2ccccc12)C(=O)N[C@@H](CC(C)C)C(=O)N[C@H](C(=O)N[C@@H](CCCCNc1c(NCCCCCN(O)C(=O)CCC(=O)NCCCCCN(O)C(=O)CCC(=O)NCCCCCN(O)C(C)=O)c(=O)c1=O)C(=O)NCC(=O)N[C@@H](CCCNC(=N)N)C(=O)N[C@@H](CCCCNC(=O)COCCOCCNC(=O)COCCOCCNC(=O)CC[C@H](NC(=O)CCCCCCCCCCCCCCCCC(=O)O)C(=O)O)C(=O)O)C(C)C	GLP1R	agonist, CRE luciferase reporter	BHK cells	Zr-loaded DFO conjugate, added: 1% HSA	reference: parent peptide	fold potency loss	32.1
